{"data": "Published values from different studies", "matrix": "plasma", "note": "Compare with care: the assays were run in different laboratories. Numbers after ± are the reported error."}
{"SMILES": "C[C@@H](N)C1CCN(S(=O)(=O)c2cccc3cnccc23)CC1", "species": "healthy volunteers, fasted", "route": "oral", "dose": "150 mg", "AUC(0-inf)": "36.2 ng·h/mL"}
{"SMILES": "COc1cc(C(=O)NC2CCN(C)CC2)c(F)cc1Nc1ncc(C(F)(F)F)c(Oc2cccc3c2C(=O)N(C)C3)n1", "species": "cancer patients", "route": "oral", "dose": "50 mg single dose", "time": "cycle 1 day 1", "setting": "geometric mean", "AUC(0-inf)": "5.32 µM·h"}
{"SMILES": "C[C@H]1CN(C(=O)CC#N)[C@]12CCN(c1ncnc3[nH]ccc13)C2", "species": "healthy Japanese males", "route": "oral", "dose": "5 mg single dose", "AUC(0-inf)": "175 ng·h/mL"}
{"SMILES": "CCCCCCCCCCCCCCCC(=O)N[C@@H](CCC(=O)NCCCC[C@@H]1NC(=O)[C@H]([C@@H](C)CC)NC(=O)[C@@H](NC(=O)[C@@H]2CCCN2C(=O)[C@H](Cc2ccccc2)NC(=O)[C@H](Cc2c[nH]cn2)NC(=O)[C@@H](NC(=O)[C@H](CC(=O)O)NC(=O)CC(C)C)[C@@H](C)O)CSSC[C@@H](C(=O)N[C@@H](CCCCN)C(N)=O)NC(=O)CNC(=O)[C@H](CCCCN)NC(=O)[C@H](CO)NC(=O)[C@H](CCCNC(=N)N)NC(=O)[C@@H]2CCCN2C(=O)[C@H](CCC(=O)O)NC(=O)[C@H](Cc2ccccc2)NC1=O)C(=O)O", "species": "healthy volunteers", "route": "subcutaneous", "dose": "30 mg single", "setting": "lyophilised formulation", "AUC(0-inf)": "26400 ± 6800 ng·h/mL"}
{"SMILES": "CS(=O)(=O)c1ccc([C@@H](O)[C@@H](CF)NC(=O)C(Cl)Cl)cc1", "species": "chicken (Arbor Acres)", "route": "oral", "dose": "20 mg/kg", "added": "quercetin 20 mg/kg pretreatment", "AUC(0-inf)": "44600 ± 4710 ng·h/mL"}
{"SMILES": "CCc1nc2c(C)cc(N3CCN(CC(=O)N4CC(O)C4)CC3)cn2c1N(C)c1nc(-c2ccc(F)cc2)c(C#N)s1", "species": "healthy volunteers, fed", "route": "oral", "dose": "600 mg single dose", "time": "day 1", "setting": "tablet", "AUC(0-inf)": "45100 ng·h/mL"}
{"SMILES": "CC[C@H](C)CCCCC(=O)N[C@@H](CCN)C(=O)N[C@H](C(=O)N[C@@H](CCN)C(=O)N[C@H]1CCNC(=O)[C@H]([C@@H](C)O)NC(=O)[C@H](CCN)NC(=O)[C@H](CCN)NC(=O)[C@H](CC(C)C)NC(=O)[C@@H](Cc2ccccc2)NC(=O)[C@H](CCN)NC1=O)[C@@H](C)O", "species": "mild renal insufficiency patients", "route": "IV", "dose": "0.75 mg/kg", "setting": "geometric least squares mean", "AUC(0-inf)": "20700 ng·h/mL"}
{"SMILES": "CC(=O)N[C@H]1CC[C@H](NC(=O)CN2CCN(c3nncc(-c4ccc(C)cc4)n3)CC2)CC1", "species": "men aged ≥65 years", "route": "oral", "dose": "100 mg single dose", "setting": "study", "AUC(0-inf)": "4730 ng·h/mL"}
{"note": "Excerpt of the above:"}
{"SMILES": "CC[C@H](C)CCCCC(=O)N[C@@H](CCN)C(=O)N[C@H](C(=O)N[C@@H](CCN)C(=O)N[C@H]1CCNC(=O)[C@H]([C@@H](C)O)NC(=O)[C@H](CCN)NC(=O)[C@H](CCN)NC(=O)[C@H](CC(C)C)NC(=O)[C@@H](Cc2ccccc2)NC(=O)[C@H](CCN)NC1=O)[C@@H](C)O", "species": "mild renal insufficiency patients", "route": "IV", "dose": "0.75 mg/kg", "setting": "geometric least squares mean", "AUC(0-inf)": "20700 ng·h/mL"}
